# Assay results gathered from unrelated publications.
Structure (SMILES),assay,test system,setting,AUC(0-t)
Cn1cc(-c2cc(N3CCCCS3(=O)=O)ccc2N[C@H]2CC[C@H](C)CC2)c2cc[nH]c2c1=O (stereo in doubt),,"Sprague-Dawley rat, plasma","oral, 3 mg/kg",190 ng·h/mL
CC12CC3CC(C)(C1)CC(NC(=O)Nc1ccc(C(=O)N4CCC[C@H](C(N)=O)C4)cc1F)(C3)C2,,"Sprague-Dawley rat, plasma","oral, 50 mg/kg",5.57 µM·h
"CNC(=O)N[C@]1(C)CCC[C@@]2(C)C3CC[C@@]4(C)C[C@]3(CCC21)CC4=O (single isomer, unassigned)",,"male Sprague-Dawley rat, plasma","oral, 2 mg/kg",70.9 ng·h/mL
N#Cc1cnc2cc(OCC3CCNCC3)c(F)cc2c1Nc1cc(F)c(OCc2cccc(Cl)n2)cc1Cl,,"male Sprague-Dawley rat, plasma","oral, 300 mg/kg",69900 ng·h/mL
CN1CCN(c2ccc(Nc3ncc(Cl)c(Nc4ccccc4P(C)(C)=O)n3)cc2Br)CC1,,"male Sprague-Dawley rat, plasma","oral, 25 mg/kg",3100 ng·h/mL
Cc1ccc(OCC(=O)N(Cc2cccs2)c2ccn[nH]2)cc1,,"male Sprague-Dawley rat, plasma","intravenous, 1 mg/kg, single dose",222 ng·h/mL
COc1cc(NC(C)=O)c2c(c1O)-c1c(OC)c(OC)cc3c1C(C2)N(C)CC3 (centres unmarked),HPLC,"male Wistar rat, plasma","oral, 200 mg/kg",57400 ng·h/mL
CC12CC3CC(C)(C1)CC(NC(=O)Nc1ccc(C(=O)N4CCCC(C(N)=O)C4)cc1)(C3)C2 (centres unmarked),,"Sprague-Dawley rat, plasma","intravenous, 10 mg/kg",10.1 µM·h
COc1ccc2c(c1OCc1ccccc1)C[C@@H](C(=O)O)N(c1nc3ccc(C#N)cc3o1)C2,,"male Sprague-Dawley rat, plasma","oral, 10 mg/kg",44100 ng·h/mL
COc1c2c(cc3oc(CO)cc(=O)c13)O[C@H](C(C)(C)O)C2,,"male Sprague-Dawley rat, plasma","oral, 2 mg/kg",402 ng·h/mL
COc1ccc(COc2c(OC)ccc3c2C[C@@H](C(=O)O)N(c2nc4ccc(F)cc4o2)C3)cn1,,"male Sprague-Dawley rat, plasma","oral, 10 mg/kg",15200 ng·h/mL
CSCOC1C(=O)C2(C)C(OCSC)CC3OCC3(OC(C)=O)C2C(OC(=O)c2ccccc2)C2(O)CC(OC(=O)C(O)C(C=C(C)C)NC(=O)OC(C)(C)C)C(C)=C1C2(C)C (centres unmarked),,"female Sprague-Dawley rat, plasma","intravenous, 2 mg/kg",215 ng·h/mL
COC(=O)c1ccc2c(c1)NC(=O)/C2=C(\Nc1ccc2c(c1)CCN2C(=O)CN1CCOCC1)c1ccccc1,,"Sprague-Dawley rat, plasma","intravenous, 2 mg/kg",1880 ng·h/mL
Nc1nc(Cl)nc2c1ncn2Cc1cc(OCC(F)F)cc(OC(F)F)c1,,"Sprague-Dawley rat, plasma","oral, 5 mg/kg",20500 ng·h/mL
CC(=O)Oc1c2c(c3ccc4c(c3c1OC(C)=O)C=CC(=O)C4(C)C)OC[C@@H]2C,,"female Sprague-Dawley rat, serum","intravenous, 10 mg/kg",15100 ng·h/mL
CC1(C)C2CCC1(C)C(OC(=O)/C=C/c1ccc(O)c(O)c1)C2 (centres unmarked),,"Sprague-Dawley rat, plasma","oral, 30 mg/kg",1470 ng·h/mL
CNc1cc(C(=O)Nc2ccc(Cl)cc2)ccc1OC,,"male Sprague-Dawley rat, plasma","oral, 20 mg/kg, single dose",7540 ng·h/mL
O=C(N[C@@H](CC1CCCCC1)C(=O)N[C@@H](C[C@H]1CCNC1=O)C(=O)C(=O)NC1CC1)OCc1cccc(Cl)c1,,"female Sprague-Dawley rat, plasma","oral, 10 mg/kg, single dose",3370 ng·h/mL
Cn1cc(-c2cc(N3CCCS3(=O)=O)ccc2N[C@H]2CC[C@H](C)CC2)c2cc[nH]c2c1=O,,"Sprague-Dawley rat, plasma","oral, 3 mg/kg",97.3 ng·h/mL
NC(=O)c1cccnc1.O.O=c1[nH]cc(F)c(=O)[nH]1.O=c1[nH]cc(F)c(=O)[nH]1.O=c1[nH]cc(F)c(=O)[nH]1,,"rat, plasma","oral, 0.06 mmol/kg",14 µM·h

# Some of these lines once more:
Structure (SMILES),assay,test system,setting,AUC(0-t)
"CNC(=O)N[C@]1(C)CCC[C@@]2(C)C3CC[C@@]4(C)C[C@]3(CCC21)CC4=O (single isomer, unassigned)",,"male Sprague-Dawley rat, plasma","oral, 2 mg/kg",70.9 ng·h/mL
N#Cc1cnc2cc(OCC3CCNCC3)c(F)cc2c1Nc1cc(F)c(OCc2cccc(Cl)n2)cc1Cl,,"male Sprague-Dawley rat, plasma","oral, 300 mg/kg",69900 ng·h/mL
